Assay results of several laboratories.
Protocols differ between the studies behind these lines. Numbers after ± are the reported error.

COc1ccc2nc(NC(=O)c3ccc(C(N)c4ccccc4)cc3)sc2c1 (centres unmarked) gave a Cmax of 600 ng/mL (CD-1 mice, female, plasma; 10 mg/kg).
With CNCc1ccc(-c2cc(=O)c3ccc4[nH]c(C(F)(F)F)nc4c3o2)cc1 the Cmax was 18.5 ng/g (ICR mice, brain; oral, 5 mg/kg).
COC1CN([C@H]2CC[C@H]([C@@]3(C)Oc4c(Cl)cc(C(=O)NCc5c(SC)cc(C)[nH]c5=O)c(C)c4O3)CC2)C1 gave a Cmax of 742 ng/mL (female CB17 SCID mice, KARPAS-422 xenograft, plasma; 25 mg/kg, day 12).
COc1ccc(/C=C/C(=O)N2CC(CCl)c3c2cc(N)c2ccccc32)cc1 (centres unmarked) has a Cmax of 108 ng/mL (female NSG mice, plasma; intraperitoneal, 0.3 mg/kg).
For O=C1C2CC3CC1CC(C(=O)N1CCN(c4ccc([N+](=O)[O-])c5ncccc45)CC1)(C3)C2, the Cmax was 29.7 ng/mL (ICR mice male, plasma; oral, 5 mg/kg).
C=C(NC(=O)c1csc(-c2nc3c(cc2O)-c2nc(cs2)C(=O)NC(C(C)O)C(=O)NC(=C(C)OC)c2nc(cs2)C(=O)NC2c4nc(cs4)C(=O)NC(COC(=O)c4c5c6c(cccc6n4O)COC(=O)C(OC4CC(C)(O)C(N(C)C)C(C)O4)C2OC5)c2nc-3cs2)n1)C(N)=O (centres unmarked) has a Cmax of 3750 ng/mL (ICR mice, Streptococcus pneumoniae ATCC 49169 infected, immunocompromised, blood; intravenous, 32 mg/kg/day once daily).
CC[C@H](C)[C@H](NC(=O)[C@H](CCCNC(=N)N)NC(=O)[C@H](Cc1c[nH]cn1)NC(=O)[C@@H](N)[C@@H](C)O)C(=O)N[C@@H](CC(C)C)C(=O)N[C@@H](CCCNC(=N)N)C(=O)N[C@@H](CCCNC(=N)N)C(=O)N[C@@H](CC(C)C)C(=O)N[C@@H](Cc1ccccc1)C(=O)N[C@@H](CC(N)=O)C(=O)N[C@@H](CC(C)C)C(=O)N[C@@H](CS)C(N)=O gave a Cmax of 0.015 to 0.02 µM (LC-MS/MS; C57BL/6J lean male mice, plasma; ip, 10 mg/kg).
CC(=O)N1c2ccc(-c3ccc(CNC(=O)c4cn5cc(-c6cnc(N)nc6)nc(N6CCOCC6)c5n4)cc3)cc2CC[C@@H]1C has a Cmax of 44 µM (female C57BL/6 mice, plasma; intraperitoneal, 45 mg/kg).
With CC(=O)c1c(C)c2cnc(Nc3ccc(N4CCNCC4)cn3)nc2n(C2CCCC2)c1=O the Cmax was 2840 ng/g (G-Smo medulloblastoma mice (hGFAP-Cre x SmoM2), forebrain; intraperitoneal, 25 mg/kg single, dosed at postnatal day P10).
The Cmax of CCCCCCCCN(Cc1ccc(CNC(=O)OCCOC23CC4CC(C2)CC(C(N)C(=O)N2C(C#N)CC5CC52)(C4)C3)cc1)CC(O)C(O)C(O)C(O)CO (centres unmarked) is reported as 0.13 µM (C57BL/6J mice, female, plasma; intratracheal, 0.5 mg/kg).
With Nc1nonc1-c1nnc2c(n1)-c1ccccc1C2=O the Cmax was 8.3 ± 0.93 µM (ICR mice, plasma; intraperitoneal, 30 mg/kg).

A few entries again:
With CNCc1ccc(-c2cc(=O)c3ccc4[nH]c(C(F)(F)F)nc4c3o2)cc1 the Cmax was 18.5 ng/g (ICR mice, brain; oral, 5 mg/kg).
COC1CN([C@H]2CC[C@H]([C@@]3(C)Oc4c(Cl)cc(C(=O)NCc5c(SC)cc(C)[nH]c5=O)c(C)c4O3)CC2)C1 gave a Cmax of 742 ng/mL (female CB17 SCID mice, KARPAS-422 xenograft, plasma; 25 mg/kg, day 12).
